Assay results from different studies.
Protocols differ between the studies behind these lines. “And” joins repeats or separate records; there may be more than shown. ± gives the spread as reported.
SRC SH3-SH2-kinase domain: Proto-oncogene tyrosine-protein kinase Src, SH3-SH2-kinase domain (SRC, Gallus gallus, UniProt P00523)
Genome polyprotein NS3 helicase domain: Genome polyprotein, NS3 helicase domain (Hepatitis C virus genotype 1b, UniProt Q9WMX2)
PTPN6: Tyrosine-protein phosphatase non-receptor type 6 (PTPN6, Homo sapiens, UniProt P29350)
Chain of UniProt P29350 (whole entry, looked up): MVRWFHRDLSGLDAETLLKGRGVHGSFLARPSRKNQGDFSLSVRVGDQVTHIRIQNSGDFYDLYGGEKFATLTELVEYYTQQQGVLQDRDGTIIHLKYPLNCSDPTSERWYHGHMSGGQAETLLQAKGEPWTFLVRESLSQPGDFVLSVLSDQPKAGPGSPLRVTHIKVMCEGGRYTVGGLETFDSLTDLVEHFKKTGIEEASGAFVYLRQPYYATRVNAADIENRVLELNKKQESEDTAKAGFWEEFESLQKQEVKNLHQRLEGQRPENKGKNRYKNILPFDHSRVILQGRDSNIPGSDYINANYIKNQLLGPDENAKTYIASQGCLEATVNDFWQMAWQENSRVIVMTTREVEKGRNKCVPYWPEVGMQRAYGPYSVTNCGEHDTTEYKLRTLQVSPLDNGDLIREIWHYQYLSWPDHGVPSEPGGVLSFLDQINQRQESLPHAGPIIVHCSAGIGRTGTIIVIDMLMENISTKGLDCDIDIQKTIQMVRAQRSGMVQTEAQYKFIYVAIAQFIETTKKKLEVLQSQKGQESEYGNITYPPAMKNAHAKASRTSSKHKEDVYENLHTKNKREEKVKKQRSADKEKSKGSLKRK
Chain of UniProt P50897 (whole entry, looked up): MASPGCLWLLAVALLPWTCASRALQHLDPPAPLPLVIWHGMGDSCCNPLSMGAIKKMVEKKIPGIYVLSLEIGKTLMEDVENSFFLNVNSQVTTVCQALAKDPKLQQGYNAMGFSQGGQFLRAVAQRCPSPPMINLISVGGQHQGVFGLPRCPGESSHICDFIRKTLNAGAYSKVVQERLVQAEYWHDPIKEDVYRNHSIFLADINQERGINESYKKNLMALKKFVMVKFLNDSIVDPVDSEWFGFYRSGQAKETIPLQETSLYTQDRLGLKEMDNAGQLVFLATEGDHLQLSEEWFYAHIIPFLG
Chain of UniProt Q9Y233 (whole entry, looked up): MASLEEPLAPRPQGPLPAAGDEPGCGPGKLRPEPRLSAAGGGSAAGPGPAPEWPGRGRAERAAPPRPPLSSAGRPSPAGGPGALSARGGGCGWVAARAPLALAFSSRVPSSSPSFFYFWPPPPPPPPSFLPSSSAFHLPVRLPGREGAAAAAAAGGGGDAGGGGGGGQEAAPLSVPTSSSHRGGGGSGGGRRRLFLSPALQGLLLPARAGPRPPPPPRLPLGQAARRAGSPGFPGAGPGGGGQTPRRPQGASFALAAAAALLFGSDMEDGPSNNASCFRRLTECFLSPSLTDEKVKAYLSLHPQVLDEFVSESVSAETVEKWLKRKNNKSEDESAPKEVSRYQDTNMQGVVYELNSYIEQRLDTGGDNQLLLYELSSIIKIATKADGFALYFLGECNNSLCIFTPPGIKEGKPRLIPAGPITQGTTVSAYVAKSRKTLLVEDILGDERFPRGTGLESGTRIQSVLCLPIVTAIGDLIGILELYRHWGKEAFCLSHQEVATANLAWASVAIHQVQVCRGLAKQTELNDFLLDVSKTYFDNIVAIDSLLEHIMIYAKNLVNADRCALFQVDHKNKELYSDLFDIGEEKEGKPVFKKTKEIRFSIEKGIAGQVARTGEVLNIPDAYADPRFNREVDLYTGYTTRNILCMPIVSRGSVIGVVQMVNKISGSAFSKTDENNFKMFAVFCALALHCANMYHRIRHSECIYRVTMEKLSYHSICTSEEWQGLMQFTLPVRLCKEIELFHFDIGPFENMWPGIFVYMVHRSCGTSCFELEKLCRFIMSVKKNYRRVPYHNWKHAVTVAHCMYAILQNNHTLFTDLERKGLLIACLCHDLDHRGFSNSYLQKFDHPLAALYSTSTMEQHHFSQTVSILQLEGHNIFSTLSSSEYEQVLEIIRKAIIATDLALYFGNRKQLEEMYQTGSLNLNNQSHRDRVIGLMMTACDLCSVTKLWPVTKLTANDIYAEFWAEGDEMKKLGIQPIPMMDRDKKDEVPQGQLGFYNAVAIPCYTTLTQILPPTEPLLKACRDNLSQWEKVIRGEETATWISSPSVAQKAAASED

| SMILES | target | test | system | conditions | IC50 |
| --- | --- | --- | --- | --- | --- |
| COc1c(C(=O)/C=C/c2ccc(F)cc2)c(O)c(OC)c2occc12 | Cytochrome P450 1A1 (CYP1A1, Homo sapiens, UniProt P04798) | enzyme activity, inhibitor |  | 15 min, pH 7.4 | 0.32 µM |
| CC[C@@]1(c2cccc(C(F)(F)F)c2)C2=C(Nc3n[nH]cc31)[C@H](F)C(C)(C)CC2=O (single isomer, unassigned) | Glycogen synthase kinase-3 alpha (GSK3A, Homo sapiens, UniProt P49840) | tau Thr231 phosphorylation, inhibitor, measured: pThr231 over total tau | HEK293 expressing human tau, transfected with GSK3α |  | 0.15 µM |
| COc1ccc(S(=O)(=O)NCc2nc(-c3ccccc3C)no2)cc1 | Trypanothione synthetase (Trypanosoma brucei, UniProt Q586P2) | enzyme activity, inhibitor |  |  | 4 µM |
| Nc1nc(-c2ccc(Cl)c(Cl)c2)cs1 | Capsid scaffolding protein, protease domain (Human herpesvirus 8 type P, UniProt Q2HRB6) | protease activity, inhibitor |  | added: fluorogenic peptide substrate | 38.4 µM |
| Cc1ccccc1-c1cc(N2CCN(C(=O)[C@@H](N)CCCNC(=N)N)CC2)ccc1N(C)C(=O)C(C)(C)c1cc(C(F)(F)F)cc(C(F)(F)F)c1 | Substance-P receptor (TACR1, Homo sapiens, UniProt P25103) | IP1 accumulation, antagonist |  | 90 min, added: substance P 10 nM | 0.407 µM |
| CC[C@H]1CC[C@H]2[C@@H]3C[C@@H](O)[C@@]4(O)C[C@H](N)CC[C@]4(C)[C@H]3CC[C@]12C | Phosphatidylinositol 3,4,5-trisphosphate 5-phosphatase 1, Ptase-C2 domains (INPP5D, Homo sapiens, UniProt Q92835) | enzyme activity, inhibitor |  |  | 122 µM |
| CCN1CCC(N(C)C(=O)Cc2ccc(O)cc2Cl)C(C)C1 (stereo not shown) | DNA repair protein RAD52 homolog, with RPA and ssDNA (RAD52, Homo sapiens, UniProt P43351) | inhibitor, FRET |  |  | 54.9 ± 3.1 µM |
| O=C(Cn1nc(C(F)(F)F)c2c1CCCC2)NCc1cccs1 | Trypanothione synthetase (Trypanosoma brucei, UniProt Q586P2) | enzyme activity, inhibitor |  |  | 3.9 µM |
| C[C@@H](O)[C@H](NC(=O)NS(=O)(=O)OC[C@H]1O[C@@H](n2cnc3c(N)ncnc32)[C@H](O)[C@@H]1O)C(=O)O | tsaD, with TsaB and TsaE (Escherichia coli, UniProt P05852) | inhibitor |  | added: TC-AMP 10 µM, ATP 1 mM | 123 µM |
| CCC(NC(=O)C(CC(C)C)NC(=O)NCc1ccc(C#N)cc1)C(=O)C(=O)NCc1cc(OC)cc(OC)c1 (stereo not shown) | Calpain-2 catalytic subunit (Capn2, Mus musculus, UniProt O08529) | enzyme activity, inhibitor | mouse pons-cerebellum membranes | added: calcium 2 mM | 0.114 µM |
| CCCCCCCCCCCCCCCC(=O)NC[C@H](NC(=O)CNC(=O)CCNc1ccc([N+](=O)[O-])c2nonc12)C(=O)N[C@H](C(=O)N[C@@H](CCCCN)C(=O)N[C@H](C(=O)N[C@@H](CCCCN)C(=O)N[C@@H](CCCCN)C(N)=O)[C@@H](C)CC)C(C)C | Palmitoyl-protein thioesterase 1 (Homo sapiens, UniProt P50897) | enzyme activity, inhibitor | lymphoblast or fibroblast lysate | pH 4.7, added: MUGS-palmitate | 8 µM |
| CC(=O)Nc1ccc(S(=O)(=O)NCc2nc(-c3ccccc3Cl)no2)cc1 | Trypanothione synthetase (Trypanosoma brucei, UniProt Q586P2) | enzyme activity, inhibitor |  |  | 3.7 µM |
| Cc1cc(NC(=O)C2CCN(C(=O)Cc3c(C)[nH]c4ccccc34)CC2)no1 | Trypanothione synthetase (Trypanosoma brucei brucei, UniProt Q586P2) | enzyme activity, BIOMOL Green phosphate release |  | 1 h preincubation | 26.4 µM and 26 µM |
| O=C(O)[C@H](Cc1c[nH]c2ccccc12)N1C(=O)c2ccccc2C1=O | DNA (cytosine-5)-methyltransferase 1 (DNMT1, Homo sapiens, UniProt P26358) | methyltransferase activity, inhibitor |  | up to 400 µM, added: SAM 0.5 µM, hemimethylated DNA 2 µM | no inhibition |
| CN1C(=O)[C@H](CC2CCCCC2)NC(=O)/C=C\C(=O)N[C@H](C(=O)O)CCNC(=O)[C@H](CCCNC(=O)c2cnccn2)NC(=O)[C@@H]1Cc1ccc(F)cc1 | SRC SH3-SH2-kinase domain | enzyme activity, inhibitor, Z'-LYTE FRET |  | Src residues 83-533, added: 50 µM ATP | > 5 µM |
| Cc1cccc(Cn2c(CN3CCN(C(=O)C4CC4)CC3)nc3c2c(=O)n(C)c(=O)n3C)c1 | Aldehyde dehydrogenase X, mitochondrial (ALDH1B1, Homo sapiens, UniProt P30837) |  |  |  | > 57 µM |
| N=C(N)NCCC[C@@H]1NC(=O)[C@H](Cc2c[nH]c3ccccc23)NC(=O)[C@H](CCCNC(=N)N)NC(=O)[C@H](Cc2c[nH]c3ccccc23)NC(=O)[C@H](CCCNC(=N)N)NC(=O)[C@H](Cc2c[nH]c3ccccc23)NC(=O)[C@H](CCCNC(=N)N)NC(=O)[C@H](Cc2c[nH]c3ccccc23)NC(=O)[C@H](CCCNC(=N)N)NC(=O)[C@H](Cc2c[nH]c3ccccc23)NC(=O)[C@H](CCCNC(=N)N)NC(=O)[C@H](Cc2c[nH]c3ccccc23)NC(=O)[C@H](CCCNC(=N)N)NC(=O)[C@H](Cc2c[nH]c3ccccc23)NC1=O | Tyrosine-protein kinase ABL1 (ABL1, Homo sapiens, UniProt P00519) | enzyme activity, inhibitor, radiometric |  |  | 0.35 µM |
| COc1ccc2nc3cc(Cl)ccc3c(NCCCCc3c(N)nc(N)nc3N)c2c1 | Muscleblind-like protein 1, with (CCUG)6 RNA (Homo sapiens, UniProt Q9NR56) | MBNL1-RNA binding, gel mobility shift |  | 100 nM tRNA, added: (CCUG)6 RNA, 350 nM MBNL1 | 40 ± 11 µM |
| COCCCN1CCc2c(Cc3ccc(Cl)cc3)[nH]c3c(OC(F)F)ccc(c23)C1=O | cAMP and cAMP-inhibited cGMP 3',5'-cyclic phosphodiesterase 10A (PDE10A, Homo sapiens, UniProt Q9Y233) | enzyme activity, inhibitor |  |  | 1.46 µM |
| CNC(=O)N(C)c1ccc(C(=O)Nc2ccc(C)cc2C(=O)Nc2ccc(Cl)cn2)c(OC)c1 | Coagulation factor X (F10, Homo sapiens, UniProt P00742) | enzyme activity, inhibitor, absorbance |  |  | 0.01 µM |
| CC(C)C[C@H](NC(=O)[C@H](Cc1c[nH]cn1)NC(=O)[C@H](CC(=O)O)NC(=O)[C@H](CCCNC(=N)N)NC(=O)[C@H](CO)NC(=O)[C@@H]1CCCN1C(=O)[C@H](CCCNC(=N)N)NC(=O)[C@H](CCC(=O)O)NC(=O)[C@H](C)NC(=O)[C@@H](N)Cc1ccc(O)cc1)C(=O)N[C@@H](Cc1ccc(O)cc1)C(=O)N[C@@H](CC(C)C)C(=O)N1CCC[C@H]1C(=O)N[C@@H](CC(C)C)C(=O)N[C@@H](CCC(=O)O)C(=O)N1CCC[C@H]1C(=O)O | Mitogen-activated protein kinase 14 (Rattus norvegicus, UniProt P70618, D315S/D316E/E317A) | kinase activity, inhibitor, competitive kinase |  |  | > 100 µM |
| S=c1[nH]nc(Cn2nnc3ccccc32)n1/N=C/c1cccs1 | Xanthine dehydrogenase/oxidase (XDH, Bos taurus, UniProt P80457) | enzyme activity, inhibitor |  |  | 263 µM |

| SMILES | target | test | system | conditions | IC50 |
| --- | --- | --- | --- | --- | --- |
| NNc1nc2cc3ccccc3cc2c(=O)n1-c1ccccc1 | Genome polyprotein, protease (Hepatitis C virus genotype 1b, UniProt O92972) | enzyme activity, inhibitor, FRET |  |  | 34 µM |
| O=C1/C(=C/c2ccc3c(c2)OCCO3)SC(=S)N1[C@@H]1O[C@H](CO)[C@@H](O)[C@H](O)[C@H]1O | DNA topoisomerase 2-alpha (TOP2A, Homo sapiens, UniProt P11388) | enzyme activity |  |  | 7.3 ± 0.13 µM |
| CC(=O)NCC(=O)N[C@@H](CC(=O)O)C(=O)N[C@@H](Cc1ccc(O)cc1)C(=O)N[C@@H](CO)C(=O)N[C@@H](Cc1cnc[nH]1)C(=O)N[C@H]1CSSC[C@@H](C(=O)N[C@H](C(=O)N[C@@H](Cc2ccc(O)cc2)C(=O)N2CCC[C@H]2C(=O)N[C@@H](CC(=O)O)C(=O)N2CCC[C@H]2C(=O)N[C@@H](CCC(=O)O)C(=O)NCC(=O)NCC(=O)NCC(N)=O)[C@@H](C)O)NC(=O)[C@H](CCCCN)NC(=O)[C@H](Cc2c[nH]c3ccccc23)NC(=O)[C@H](Cc2c[nH]c3ccccc23)NC(=O)[C@@H]2CCCN2C(=O)[C@H](Cc2ccc(O)cc2)NC(=O)[C@H](Cc2ccc(O)cc2)NC(=O)[C@H](CCCNC(=N)N)NC(=O)[C@H](CC(C)C)NC(=O)[C@@H]2CCCN2C(=O)[C@H](CO)NC1=O | Angiotensin-converting enzyme (ACE, Homo sapiens, UniProt P12821) | inhibitor |  |  | 3.16 µM |
| COCCNc1nc(-c2nccn2C)nc2sc(-c3cccc(OC)c3Cl)c(-c3ccccc3)c12 | RHOA (Homo sapiens, UniProt P61586) | GTP binding, inhibitor, cell-free GTP competition |  | added: fluorescent GTP 100 nmol/L | 2.5 µM |
| O=C1CO[C@H](CNC(=O)C2(c3ccc(Cl)cc3)CC2)CN1C1Cc2ccccc2C1 | C-C chemokine receptor type 6 (CCR6, Homo sapiens, UniProt P51684) | cell migration |  |  | 0.158 µM |
| Cc1cc(C)nc(NS(=O)(=O)c2ccc(NC(=O)CCCOc3ccc(C(C)(C)C)cc3)cc2)n1 | Cyclin-dependent kinase 1 (CDK1, Homo sapiens, UniProt P06493) | enzyme activity, inhibitor, ADP detection |  |  | 4.36 µM |
| C[C@@H](O)[C@@H]1NC(=O)[C@H](Cc2ccccc2)NC(=O)[C@H]([C@@H](C)O)NC(=O)[C@H](CCCCN)NC(=O)[C@@H](Cc2c[nH]c3ccccc23)NC(=O)[C@H](Cc2ccccc2)NC(=O)[C@H](Cc2ccccc2)NC(=O)[C@H](CC(N)=O)NC(=O)[C@H](NC(=O)[C@@H](N)Cc2ccc(Cl)cc2)CSSC[C@@H](C(=O)N[C@@H](Cc2ccc3ccccc3c2)C(N)=O)NC1=O | Somatostatin receptor type 5 (SSTR5, Homo sapiens, UniProt P35346) | ligand displacement, radioligand |  | pH 8.2, cell membranes | 0.009 µM |
| O=S(=O)(Nc1cscn1)c1c(F)cc(NCc2c(F)ccc(F)c2CN2CCC2)cc1F | Sodium channel protein type 1 subunit alpha (SCN1A, Homo sapiens, UniProt P35498) | ion current, inhibitor |  |  | 8.75 µM |
| CC(C)n1nc(-c2ccc3cc(OCc4cccc(Cl)c4)ccc3c2)c2c(N)ncnc21 | Tyrosine-protein kinase HCK, SH2 (HCK, Homo sapiens, UniProt P08631, Q523E/Q524E/Q525I) | enzyme activity, inhibitor |  |  | 0.063 µM |
| CC(C)(C)c1ccc(CSc2nc(-c3cccs3)cc(-c3ccc(Cl)cc3)c2C#N)cc1 | Histone acetyltransferase KAT2A (KAT2A, Homo sapiens, UniProt Q92830) | enzyme activity, inhibitor, radiometric |  |  | > 100 µM |
| C=C(C)C(=O)Nc1ccc(-c2c(-c3ccc(Oc4cccc(C)n4)cc3)c3c(N)ncnc3n2C)cc1 | Fibroblast growth factor receptor 3 (FGFR3, Homo sapiens, UniProt P22607) | Caliper mobility shift |  | 30 min preincubation, added: 100 µM ATP | 0.18 µM |
| CC(=O)Oc1cc(C)c(OC(C)=O)c2c1CC=C(CCC=C(C)C)C2 | DNA topoisomerase IB (Leishmania donovani, UniProt A0A3Q8IHS4+Q8WQM6) | DNA relaxation activity, inhibitor |  | added: supercoiled plasmid DNA | > 100 µM |
| CCN(CC)c1ccc(-c2nc3ccc(-c4nc5ccc(C)c(S(=O)(=O)O)c5s4)cc3s2)cc1 | Genome polyprotein NS3 helicase domain | helicase activity, inhibitor, MBHA |  |  | 26 ± 21 µM |
| CC(/C=C/C(=O)NO)=C\[C@@H](C)C(=O)c1ccc(N(C)C)cc1 | PTPN6 | enzyme activity, inhibitor, fluorescence |  |  | > 100 µM |
| Nc1nc2c(c(=O)[nH]1)[n+](Cc1cc3cc(Cl)ccc3o1)cn2Cc1ccccc1CCP(=O)(O)O | Eukaryotic translation initiation factor 4E (EIF4E, Homo sapiens, UniProt P06730) | cell-free assay, FP |  |  | 14.7 µM |
| CC(CO)C1CCC2(C)C3=CCC4C5(CCC(OC5=O)C4(C)C)C3=CCC12C (stereo not shown) | PTPN6 | enzyme activity, inhibitor, absorbance |  |  | 6.18 µM |
| CN1CCC[C@@H](C(=O)O)NC(=O)/C=C/C(=O)N[C@@H](CC2CCCCC2)C(=O)N[C@@H](Cc2ccc(F)cc2)C(=O)N[C@@H](Cc2ccc([N+](=O)[O-])cc2)C1=O | SRC SH3-SH2-kinase domain | enzyme activity, inhibitor, Z'-LYTE FRET |  | Src residues 83-533, added: 50 µM ATP | 0.036 ± 0.001 µM |
| C/C=C/C(=O)Nc1ccc2nc(NCCCCCN(C)C)nc(NCCCCCCN(C)C)c2c1 | PHD finger protein 1, Tudor-PHD1-PHD2 domains (Homo sapiens, UniProt O43189) | methyl-lysine binding, TR-FRET |  |  | > 100 µM |
| NC(=O)[C@@H]1CCNC(=O)[C@H](CCCNC(=O)c2cnccn2)NC(=O)[C@H](CC2CCCCC2)NC(=O)[C@H](C/C=C/c2ccccc2)NC(=O)/C=C\C(=O)N1 | SRC SH3-SH2-kinase domain | enzyme activity, inhibitor, Z'-LYTE FRET |  | Src residues 83-533, added: 50 µM ATP | 25 ± 3 µM |
| Cc1cn(-c2cc(NC(=O)c3ccc(C)c(Nc4nccc(-c5cccnc5)n4)c3)cc(C(F)(F)F)c2)cn1 | Proto-oncogene tyrosine-protein kinase Src, SH2 (SRC, Gallus gallus, UniProt P00523, G530I/P529E/Q528E) | cell-free assay, inhibitor |  |  | > 10 µM |
| Cc1ccc2nc(-c3ccc(N=NNc4ccc(-c5nc6ccc(C)c(S(=O)(=O)O)c6s5)cc4)cc3)sc2c1S(=O)(=O)O | Genome polyprotein NS3 helicase domain | helicase activity, molecular beacon helicase |  | added: RNA substrate | 30 ± 3.6 µM |
